# Experimental data of several laboratories.
# Each line is one published result; not all experiments were run side by side. Values joined by “and” are separate records of one study, mostly repeats; a detail may differ. Numbers after ± are the reported error.
# Alpha-amylase: Alpha-amylase (Bos taurus, UniProt Q3MHH8)
# FFAR4: Free fatty acid receptor 4 (FFAR4, Homo sapiens, UniProt Q5NUL3)
# Sequence of UniProt Q5NUL3 (whole entry, looked up): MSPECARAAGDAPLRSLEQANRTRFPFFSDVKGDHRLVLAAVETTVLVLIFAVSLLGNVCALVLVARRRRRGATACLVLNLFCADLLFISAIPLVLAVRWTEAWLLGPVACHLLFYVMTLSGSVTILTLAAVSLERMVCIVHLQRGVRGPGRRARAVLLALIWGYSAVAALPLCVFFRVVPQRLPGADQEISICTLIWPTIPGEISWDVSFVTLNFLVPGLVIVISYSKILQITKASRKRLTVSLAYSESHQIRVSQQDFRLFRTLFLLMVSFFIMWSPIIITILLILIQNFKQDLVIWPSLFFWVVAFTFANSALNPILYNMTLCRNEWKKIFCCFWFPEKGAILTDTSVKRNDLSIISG
# Trypanothione synthetase: Trypanothione synthetase (Trypanosoma brucei brucei, UniProt Q8IEX1)
# Sequence of UniProt Q96D96 (whole entry, looked up): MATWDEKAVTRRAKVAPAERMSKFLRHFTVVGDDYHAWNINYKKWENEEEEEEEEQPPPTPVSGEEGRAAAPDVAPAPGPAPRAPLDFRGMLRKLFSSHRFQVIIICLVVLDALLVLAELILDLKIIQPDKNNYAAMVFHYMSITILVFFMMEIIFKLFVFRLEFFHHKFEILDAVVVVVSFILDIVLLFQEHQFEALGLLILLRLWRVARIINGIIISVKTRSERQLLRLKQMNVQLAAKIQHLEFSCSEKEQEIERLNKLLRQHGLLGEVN
# Sequence of UniProt Q16853 (whole entry, looked up): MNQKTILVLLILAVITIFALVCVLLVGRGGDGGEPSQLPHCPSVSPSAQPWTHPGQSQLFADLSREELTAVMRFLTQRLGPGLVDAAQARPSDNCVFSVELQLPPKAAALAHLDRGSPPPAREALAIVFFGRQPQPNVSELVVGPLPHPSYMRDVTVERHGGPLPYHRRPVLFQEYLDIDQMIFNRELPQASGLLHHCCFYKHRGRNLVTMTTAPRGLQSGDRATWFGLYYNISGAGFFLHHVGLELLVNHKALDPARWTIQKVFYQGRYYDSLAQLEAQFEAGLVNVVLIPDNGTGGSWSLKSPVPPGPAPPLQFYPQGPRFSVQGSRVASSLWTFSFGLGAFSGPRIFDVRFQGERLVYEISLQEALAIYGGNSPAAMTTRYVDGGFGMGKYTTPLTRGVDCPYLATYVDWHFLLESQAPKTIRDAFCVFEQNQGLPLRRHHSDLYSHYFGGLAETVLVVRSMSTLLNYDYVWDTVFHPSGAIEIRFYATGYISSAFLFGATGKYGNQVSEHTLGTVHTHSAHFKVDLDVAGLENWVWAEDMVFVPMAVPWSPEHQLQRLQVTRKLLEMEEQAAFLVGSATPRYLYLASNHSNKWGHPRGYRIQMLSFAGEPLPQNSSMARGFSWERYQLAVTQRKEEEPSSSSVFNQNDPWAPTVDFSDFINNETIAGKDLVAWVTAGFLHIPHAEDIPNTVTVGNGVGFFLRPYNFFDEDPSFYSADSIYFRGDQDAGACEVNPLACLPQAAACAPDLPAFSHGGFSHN
# Sequence of UniProt P06239 (whole entry, looked up): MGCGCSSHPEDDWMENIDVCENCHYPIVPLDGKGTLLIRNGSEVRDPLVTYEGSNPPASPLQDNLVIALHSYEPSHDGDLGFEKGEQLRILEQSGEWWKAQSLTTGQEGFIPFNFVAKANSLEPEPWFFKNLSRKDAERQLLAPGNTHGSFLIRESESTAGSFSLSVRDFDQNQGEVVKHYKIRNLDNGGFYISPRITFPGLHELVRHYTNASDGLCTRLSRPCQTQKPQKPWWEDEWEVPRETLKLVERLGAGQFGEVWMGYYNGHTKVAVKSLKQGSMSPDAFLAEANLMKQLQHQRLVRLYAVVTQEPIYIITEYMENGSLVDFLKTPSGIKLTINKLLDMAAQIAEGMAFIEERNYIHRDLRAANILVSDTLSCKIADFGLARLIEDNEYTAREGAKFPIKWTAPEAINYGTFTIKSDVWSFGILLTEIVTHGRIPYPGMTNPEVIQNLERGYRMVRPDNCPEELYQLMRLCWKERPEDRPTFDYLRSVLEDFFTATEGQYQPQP
# Sequence of UniProt P08172 (whole entry, looked up): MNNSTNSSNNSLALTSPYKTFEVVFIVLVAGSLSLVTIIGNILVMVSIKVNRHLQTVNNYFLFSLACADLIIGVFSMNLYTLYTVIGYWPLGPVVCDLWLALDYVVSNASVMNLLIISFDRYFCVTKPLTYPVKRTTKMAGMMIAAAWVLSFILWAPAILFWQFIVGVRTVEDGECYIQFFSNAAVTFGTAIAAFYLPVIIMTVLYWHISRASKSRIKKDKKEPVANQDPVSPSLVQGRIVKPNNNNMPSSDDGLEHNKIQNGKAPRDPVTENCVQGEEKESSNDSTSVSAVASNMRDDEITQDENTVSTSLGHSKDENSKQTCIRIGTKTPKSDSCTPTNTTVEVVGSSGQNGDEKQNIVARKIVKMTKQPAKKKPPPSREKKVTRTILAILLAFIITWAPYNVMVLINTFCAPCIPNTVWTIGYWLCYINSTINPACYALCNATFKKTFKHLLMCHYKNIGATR
# Sequence of UniProt P14780 (whole entry, looked up): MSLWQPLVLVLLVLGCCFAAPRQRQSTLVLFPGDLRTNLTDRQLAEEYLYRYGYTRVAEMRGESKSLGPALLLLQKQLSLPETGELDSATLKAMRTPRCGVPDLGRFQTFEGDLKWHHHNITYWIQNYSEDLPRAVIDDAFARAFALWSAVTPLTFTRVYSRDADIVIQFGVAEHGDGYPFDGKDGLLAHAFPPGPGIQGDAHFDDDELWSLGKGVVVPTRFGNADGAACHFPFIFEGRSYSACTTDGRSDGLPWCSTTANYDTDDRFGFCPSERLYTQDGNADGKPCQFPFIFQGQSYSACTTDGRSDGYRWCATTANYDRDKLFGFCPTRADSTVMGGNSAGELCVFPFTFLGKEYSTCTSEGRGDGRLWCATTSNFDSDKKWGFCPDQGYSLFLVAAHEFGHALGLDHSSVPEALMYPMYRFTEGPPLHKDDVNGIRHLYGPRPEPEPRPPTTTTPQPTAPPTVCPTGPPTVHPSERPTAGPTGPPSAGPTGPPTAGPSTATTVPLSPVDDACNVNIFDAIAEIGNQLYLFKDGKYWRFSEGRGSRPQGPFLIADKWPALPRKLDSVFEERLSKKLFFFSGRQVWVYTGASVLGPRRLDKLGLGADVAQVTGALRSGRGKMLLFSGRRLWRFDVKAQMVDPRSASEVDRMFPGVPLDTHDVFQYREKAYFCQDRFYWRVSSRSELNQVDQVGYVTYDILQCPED
# Sequence of UniProt Q8N884 (whole entry, looked up): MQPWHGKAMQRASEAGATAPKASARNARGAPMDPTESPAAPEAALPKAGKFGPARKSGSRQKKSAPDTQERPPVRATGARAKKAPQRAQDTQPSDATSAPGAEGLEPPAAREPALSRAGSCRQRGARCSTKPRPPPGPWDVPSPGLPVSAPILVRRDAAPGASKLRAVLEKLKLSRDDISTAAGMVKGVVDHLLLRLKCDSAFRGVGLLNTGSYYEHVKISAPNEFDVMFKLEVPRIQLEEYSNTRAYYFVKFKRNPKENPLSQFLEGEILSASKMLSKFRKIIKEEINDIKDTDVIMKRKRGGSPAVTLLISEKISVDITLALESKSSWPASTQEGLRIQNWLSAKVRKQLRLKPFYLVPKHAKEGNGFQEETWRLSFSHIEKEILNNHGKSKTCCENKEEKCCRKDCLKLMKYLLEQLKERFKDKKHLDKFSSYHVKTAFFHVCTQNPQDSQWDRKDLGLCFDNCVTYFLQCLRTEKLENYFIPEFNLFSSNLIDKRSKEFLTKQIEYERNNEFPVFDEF
# Sequence of UniProt Q5TCX8 (whole entry, looked up): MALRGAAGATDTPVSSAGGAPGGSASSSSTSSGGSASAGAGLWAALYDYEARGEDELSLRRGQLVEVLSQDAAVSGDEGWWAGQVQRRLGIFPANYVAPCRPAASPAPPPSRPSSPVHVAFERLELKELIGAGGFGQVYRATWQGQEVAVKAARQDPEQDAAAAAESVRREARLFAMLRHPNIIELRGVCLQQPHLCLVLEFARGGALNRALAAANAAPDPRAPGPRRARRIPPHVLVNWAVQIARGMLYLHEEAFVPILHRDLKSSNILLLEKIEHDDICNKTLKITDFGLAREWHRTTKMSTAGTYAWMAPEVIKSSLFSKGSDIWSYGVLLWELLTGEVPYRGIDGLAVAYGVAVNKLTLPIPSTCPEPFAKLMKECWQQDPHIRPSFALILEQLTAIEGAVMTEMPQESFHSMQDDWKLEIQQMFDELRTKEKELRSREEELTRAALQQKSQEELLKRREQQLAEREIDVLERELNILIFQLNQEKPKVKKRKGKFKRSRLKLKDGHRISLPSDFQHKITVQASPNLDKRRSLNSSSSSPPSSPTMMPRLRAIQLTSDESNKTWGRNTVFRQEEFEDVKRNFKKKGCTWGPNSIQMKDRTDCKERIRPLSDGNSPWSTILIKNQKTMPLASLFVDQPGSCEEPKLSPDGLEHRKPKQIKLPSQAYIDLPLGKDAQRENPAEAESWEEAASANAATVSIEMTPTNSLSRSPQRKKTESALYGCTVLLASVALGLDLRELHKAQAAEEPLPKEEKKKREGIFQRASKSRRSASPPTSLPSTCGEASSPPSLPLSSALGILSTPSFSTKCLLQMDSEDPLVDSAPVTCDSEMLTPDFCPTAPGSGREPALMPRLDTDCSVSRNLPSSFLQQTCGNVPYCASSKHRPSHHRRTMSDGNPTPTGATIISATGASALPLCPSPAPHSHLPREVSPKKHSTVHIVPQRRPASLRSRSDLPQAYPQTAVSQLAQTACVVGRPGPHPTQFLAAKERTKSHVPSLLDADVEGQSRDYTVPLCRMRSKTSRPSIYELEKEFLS
# Sequence of UniProt Q6W5P4 (whole entry, looked up): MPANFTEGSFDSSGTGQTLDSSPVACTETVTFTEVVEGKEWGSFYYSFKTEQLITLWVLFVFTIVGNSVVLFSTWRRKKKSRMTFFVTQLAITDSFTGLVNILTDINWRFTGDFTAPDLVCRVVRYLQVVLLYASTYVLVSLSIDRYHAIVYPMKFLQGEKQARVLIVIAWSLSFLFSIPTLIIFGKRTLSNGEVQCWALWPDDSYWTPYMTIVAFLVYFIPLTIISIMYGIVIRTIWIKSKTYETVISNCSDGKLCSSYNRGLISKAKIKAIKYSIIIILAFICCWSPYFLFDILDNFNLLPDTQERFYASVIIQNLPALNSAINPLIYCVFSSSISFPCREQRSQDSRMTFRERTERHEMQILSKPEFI
Structure (SMILES),target or system,test,test system,conditions,scale,quantity,result
NC/C(=C\F)COc1cccc(Cn2c(=S)[nH]c(=O)c3[nH]cnc32)c1,"Amine oxidase [copper-containing] 3 (AOC3, Homo sapiens, UniProt Q16853)","H2O2 production, Amplex Red",,"10 µM, recombinant human enzyme",,inhibition,100%
CC1=NN(c2ccc(Cl)cc2)C(=O)C1=NNc1ccc(S(N)(=O)=O)cc1,Alpha-amylase,"enzyme activity, inhibitor, glucose oxidase",,"10 µg/mL, added: dextrin",,inhibition,3.8388 ± 0.000263%
CC(C)NCC(O)COc1cccc2ccccc12 (racemic),rat β-Adrenergic receptor,binding,,1 × 10 µM,,inhibition,100%
CC1=NN(c2ccc(C)cc2)C(=O)C1=NNc1ccc(S(N)(=O)=O)cc1,Alpha-amylase,"enzyme activity, inhibitor, glucose oxidase",,"50 µg/mL, added: dextrin",,inhibition,25.1%
CCN(CC)c1ccc(C2Nc3ccc(C(=O)c4ccccc4)cc3NC3=C2C(=O)CC(C)(C)C3)cc1 (stereo not shown),"benzodiazepine site, rat brain",binding,,10 µM,,inhibition,22%
Cc1nc(Nc2ncc(C(=O)Nc3c(C)cccc3Cl)s2)cc(N2CC[C@H](O)C2)n1,"Tyrosine-protein kinase Lck (LCK, Homo sapiens, UniProt P06239)",,,0.001 µM,,inhibition,92%
O=C(O)CCCCCCCNc1cc(=O)[nH]c(=O)[nH]1,FFAR4,"antagonist, β-arrestin recruitment",CHO cells,10 µM,,inhibition,23 ± 7%
CC1=NN(c2cc(Cl)ccc2Cl)C(=O)C1=NNc1ccc(S(N)(=O)=O)cc1,Alpha-amylase,"enzyme activity, inhibitor, glucose oxidase",,"10 µg/mL, added: dextrin",,inhibition,14.395 ± 0.000265%
O=C(NO)c1ccc(CN2CCCCc3ccccc32)c(F)c1,"Muscarinic acetylcholine receptor M2 (CHRM2, Homo sapiens, UniProt P08172)","radioligand binding, radioligand displacement",,"10 µM, mean of replicates",,inhibition,-5.13%
Cc1cc(-c2ccnc3[nH]cc(F)c23)cc(F)c1[C@@]1(O)[C@H](C)CN(C(=O)CN)C[C@@H]1C,"Rho-associated protein kinase 1 (ROCK1, Homo sapiens, UniProt Q13464)","ATP probe binding, KiNativ",HEK293T cell lysate,1 µM,,inhibition,19.5%
CCNNC(=O)c1ccc(CN(CC(=O)NCc2ccccc2)C(=O)c2ccc(N(C)C)cc2)cc1,"Matrix metalloproteinase-9 (MMP9, Homo sapiens, UniProt P14780)",enzyme activity,,10 µM,,inhibition,no inhibition
CC(C)c1noc2ncc(C(=O)c3ccccc3O)cc12,"Voltage-gated hydrogen channel 1 (HVCN1, Homo sapiens, UniProt Q96D96)","ion current, inhibitor, whole-cell patch clamp",,10 µM,,inhibition,0.75% and 4.22% and 3.74% and 4.12% and 2.92%
O=C(CN1C(=O)Cc2c([nH]c3ccc(Br)cc23)-c2ccc(Cl)cc21)NC(CO)(CO)CO,Trypanothione synthetase,"enzyme activity, inhibitor, BIOMOL Green",,30 µM,,inhibition,12.6 ± 7%
O=C(O)c1cnccn1,"panD (Mycobacteroides abscessus, UniProt B1MGV7)","enzyme activity, 1H-NMR",,"200 µM, added: L-Asp",,inhibition,14%
CC(C)CNc1cc(=O)[nH]c(=O)[nH]1,FFAR4,"antagonist, β-arrestin recruitment",CHO cells,"10 µM, added: 4 µM TUG-891",,inhibition,20 ± 2%
CCCCC/C=C\C/C=C\CCCCCCCC(=O)O,"Ubiquitin carboxyl-terminal hydrolase 51 (USP51, Homo sapiens, UniProt Q70EK9)",inhibitor,,"1 µM, 1 h preincubation, added: Ub-AMC 250 nM",,inhibition,100%
O=c1cc(NCCc2ccccc2Cl)[nH]c(=O)[nH]1,FFAR4,"antagonist, β-arrestin recruitment",CHO cells,"10 µM, added: 4 µM TUG-891",,inhibition,9 ± 2%
Cn1cc(-c2cnc3ccc(NC(=O)Nc4ccc(F)c(Br)c4)cc3n2)cn1,"Mitogen-activated protein kinase kinase kinase 12 (MAP3K12, Homo sapiens, UniProt Q12852)","kinase binding, KiNativ profiling, refers to: Lys2 peptide",PANC-1 lysate,2.5 µM,,inhibition,37.9%
CC1=NN(c2ccc(F)cc2)C(=O)C1=NNc1ccc(S(N)(=O)=O)cc1,Alpha-amylase,"enzyme activity, inhibitor, glucose oxidase",,"50 µg/mL, added: dextrin",,inhibition,8.25%
COC(=O)CN1C(=O)Cc2c([nH]c3ccc(Br)cc23)-c2ccc(Cl)cc21,Trypanothione synthetase,"enzyme activity, inhibitor, BIOMOL Green",,30 µM,,inhibition,17.1 ± 4%
CC[C@]12CCCN3CCc4c(n(c5ccccc45)[C@@](O)(C(=O)OC)C1)[C@@H]32,"Neuropeptide S receptor, isoform B (NPSR1, Homo sapiens, UniProt Q6W5P4)","beta-arrestin recruitment, antagonist, PathHunter chemiluminescence",,"20 µM, added: agonist at EC80",,inhibition,-15%
CCCCCCCCCCNc1cc(=O)[nH]c(=O)[nH]1,FFAR4,"antagonist, β-arrestin recruitment",CHO cells,10 µM,,inhibition,32 ± 9%
Cc1nn(-c2nc3ccccc3s2)c(O)c1C(c1ccccc1C(=O)O)c1c(C)nn(-c2nc3ccccc3s2)c1O,"Cyclic GMP-AMP synthase (CGAS, Homo sapiens, UniProt Q8N884)","enzyme activity, inhibitor, pyrophosphatase-coupled",,"100 µM, 1.5 h, added: HT-DNA",,inhibition,93.8%
CCCCCCNc1[nH]c(=O)[nH]c(=O)c1N=O,FFAR4,"antagonist, β-arrestin recruitment",CHO cells,10 µM,,inhibition,13 ± 3%
C[C@H]1[C@H](OC(=O)CCC(=O)O)O[C@@H]2O[C@@]3(C)CC[C@H]4[C@H](C)CC[C@@H]1[C@@]24OO3,"Non-structural polyprotein pORF1, helicase domain (Hepatitis E virus genotype 1, UniProt P33424)","ATPase activity, inhibitor, colorimetric",,"78 µM, added: ATP 100 µM",,inhibition,55.3%
CC[C@@H]1[C@H](F)C(=O)N[C@@H]1COc1nccc2cc(C(N)=O)c(OC)cc12,"Mitogen-activated protein kinase kinase kinase 21 (MAP3K21, Homo sapiens, UniProt Q5TCX8)","ATP-site probe binding, ActivX profiling, refers to: MLK4",THP-1 cell lysate,"0.01 mM, Lys2 site",,inhibition,7.8%
Cn1cc(-c2ccc(-c3cncc(Cl)c3N3CCC4(CCNC4=O)CC3)cc2)cn1,COLO 205,"gene expression, microarray, refers to: ACTA2 mRNA",,"concentration not given, 6 h",baseline: untreated cells,log2 fold change,1.85
CC1=NN(c2cccc(C)c2)C(=O)C1=NNc1ccc(S(N)(=O)=O)cc1,Alpha-amylase,"enzyme activity, inhibitor, glucose oxidase",,"500 µg/mL, added: dextrin",,inhibition,22.6%
O=c1cc(NCc2ccccc2)[nH]c(=O)[nH]1,FFAR4,"antagonist, β-arrestin recruitment",CHO cells,"10 µM, added: 4 µM TUG-891",,inhibition,37 ± 5%
CC1=NN(c2ccccn2)C(=O)C1=NNc1ccc(S(N)(=O)=O)cc1,Alpha-amylase,"enzyme activity, inhibitor, glucose oxidase",,"50 µg/mL, added: dextrin",,inhibition,11.1%
CCCCCCCCCCNc1cc(=O)n(C)c(=O)[nH]1,FFAR4,"antagonist, β-arrestin recruitment",CHO cells,"10 µM, added: 4 µM TUG-891",,inhibition,15 ± 1%
COc1cc(C(=O)NS(=O)(=O)c2ccccc2C)ccc1Cc1cn(C)c2ccc(NC(=O)OC3CCCC3)cc12,"Volume-regulated anion channel subunit LRRC8C, part LRRC8A IL1 chimera (LRRC8C, Homo sapiens, UniProt Q8TDW0, E6A)","ion current, inhibitor, whole-cell patch clamp",HCT LRRC8-/- cells,"0.03 µM, +100 mV",,inhibition,8.27% and 15.6% and 11.6% and 27.5%
O=c1cc(NCCc2cccc(F)c2)[nH]c(=O)[nH]1,FFAR4,"antagonist, β-arrestin recruitment",CHO cells,"10 µM, added: 4 µM TUG-891",,inhibition,11 ± 5%
COc1cc(C(=O)OCCCN2CCCN(CCCOC(=O)c3cc(OC)c(OC)c(OC)c3)CC2)cc(OC)c1OC,"Equilibrative nucleoside transporter 2 (Homo sapiens, UniProt Q14542)","nucleoside transport, inhibitor",MDCKII cells expressing ENT2,"25.1 µM, added: adenosine",,inhibition,81.4% and 81.6%
